Experimental data gathered from unrelated publications.
Every numbered part comes from another study and shows a few of its results, in no order. Changes are numbered by the printed parent chain.
Sequence of UniProt Q9C8N7 (whole entry, looked up): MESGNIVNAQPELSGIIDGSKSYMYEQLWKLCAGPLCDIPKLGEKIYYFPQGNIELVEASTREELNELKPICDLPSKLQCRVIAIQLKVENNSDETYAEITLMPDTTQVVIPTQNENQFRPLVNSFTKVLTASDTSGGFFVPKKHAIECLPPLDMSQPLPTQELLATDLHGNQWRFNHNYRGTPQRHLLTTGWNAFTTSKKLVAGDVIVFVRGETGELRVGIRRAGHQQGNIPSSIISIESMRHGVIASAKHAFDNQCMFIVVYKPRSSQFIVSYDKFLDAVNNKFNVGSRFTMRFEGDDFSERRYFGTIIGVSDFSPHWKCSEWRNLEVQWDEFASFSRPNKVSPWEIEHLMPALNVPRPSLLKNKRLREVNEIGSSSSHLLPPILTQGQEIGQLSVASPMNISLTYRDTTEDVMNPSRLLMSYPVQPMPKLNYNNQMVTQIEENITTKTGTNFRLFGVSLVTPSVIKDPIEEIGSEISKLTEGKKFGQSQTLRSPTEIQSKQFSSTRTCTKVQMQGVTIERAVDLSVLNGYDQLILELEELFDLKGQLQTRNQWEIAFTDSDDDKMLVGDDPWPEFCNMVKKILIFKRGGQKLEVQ
Sequence of UniProt O15294 (whole entry, looked up): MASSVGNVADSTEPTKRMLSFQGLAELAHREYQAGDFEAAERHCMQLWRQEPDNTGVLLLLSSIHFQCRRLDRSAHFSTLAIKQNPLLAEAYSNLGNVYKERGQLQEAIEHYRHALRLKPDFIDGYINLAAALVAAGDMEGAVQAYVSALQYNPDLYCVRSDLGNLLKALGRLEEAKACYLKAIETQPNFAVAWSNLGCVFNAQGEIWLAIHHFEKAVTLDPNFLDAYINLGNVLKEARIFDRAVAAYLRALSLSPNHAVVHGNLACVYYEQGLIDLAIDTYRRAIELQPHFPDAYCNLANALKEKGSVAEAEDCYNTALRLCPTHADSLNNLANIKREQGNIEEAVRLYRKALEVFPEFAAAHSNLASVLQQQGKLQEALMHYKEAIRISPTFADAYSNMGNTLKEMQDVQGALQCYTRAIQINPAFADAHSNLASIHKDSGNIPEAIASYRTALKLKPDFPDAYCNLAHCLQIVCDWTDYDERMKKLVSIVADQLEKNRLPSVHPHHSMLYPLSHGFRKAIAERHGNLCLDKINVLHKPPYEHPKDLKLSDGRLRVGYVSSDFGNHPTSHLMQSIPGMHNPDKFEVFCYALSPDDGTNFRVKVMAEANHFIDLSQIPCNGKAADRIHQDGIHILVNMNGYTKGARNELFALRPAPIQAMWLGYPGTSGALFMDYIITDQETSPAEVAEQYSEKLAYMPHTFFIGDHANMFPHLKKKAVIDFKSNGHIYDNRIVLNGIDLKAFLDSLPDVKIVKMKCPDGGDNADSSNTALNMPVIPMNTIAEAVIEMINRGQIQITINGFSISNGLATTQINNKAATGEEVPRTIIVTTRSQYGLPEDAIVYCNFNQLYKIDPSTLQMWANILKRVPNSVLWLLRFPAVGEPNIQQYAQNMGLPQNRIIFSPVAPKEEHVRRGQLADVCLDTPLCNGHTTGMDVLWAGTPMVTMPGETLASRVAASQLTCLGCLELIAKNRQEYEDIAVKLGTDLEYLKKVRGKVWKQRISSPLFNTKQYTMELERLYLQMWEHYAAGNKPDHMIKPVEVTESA

Sample 1
Target: PABPC1L2, full length, GST fusion (mouse, UniProt A0ABA7IW68)
Technique: RNAcompete
Molecule type: RNA
Medium: in vitro
Concentration: 20 nM
Setting: 7-mer, probes averaged, single round
Baseline: mean of 7-mers
Reading: higher = stronger binding
Construct (chain): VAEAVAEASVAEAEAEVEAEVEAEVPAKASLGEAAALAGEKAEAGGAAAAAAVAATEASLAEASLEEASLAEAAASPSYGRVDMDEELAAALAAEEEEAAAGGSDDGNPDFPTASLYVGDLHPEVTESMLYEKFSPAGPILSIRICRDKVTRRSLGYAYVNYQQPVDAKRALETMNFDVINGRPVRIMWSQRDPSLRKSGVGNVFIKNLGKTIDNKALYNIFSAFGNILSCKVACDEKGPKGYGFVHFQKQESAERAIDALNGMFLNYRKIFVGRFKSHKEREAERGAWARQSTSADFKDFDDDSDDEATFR
Sequence | 7-mer Z-score
CUAGUGA | -0.238
CUACUUA | -0.141
GAGUACC | -0.153
CACUAUC | -0.151
GUAUCAA | 0.0986
CCGUCUA | -0.316
CAAUCUA | -0.0482
CGUGGUG | -0.0971

Sample 2
Target: CCND1, cyclin fold, Cln2 fusion (human)
Technique: yeast growth competition, sequencing
Medium: yeast
Setting: weak parent motif
Baseline: not given
Reading: higher = stronger binding
Starting sequence: E2F1 docking peptide (human); PPVKRRLDLETDH
Substitution | normalised enrichment score
V3Q | 0.244
H13G | 1.13
P2M | -0.154
D12C | 0.881
D12F | 1.17
R5H | 0.496
T11M | 0.304
T11L | 1.13

Single results of other studies
B1: ARF11 500-622 (Arabidopsis thaliana, UniProt Q9ZPY6); chain SPKEQKQQTSTRSRIKVQMQGTAVGRAVDLTLLRSYDELIKELEKMFEIEGELSPKDKWAIVFTDDEGDRMLVGDDPWNEFCKMAKKLFIYPSDEVKKMRSKSLLGDKGTIVNLESDQRTVHV
P1: PafA, mature enzyme, eGFP fusion (Elizabethkingia meningoseptica, UniProt Q9KJX5); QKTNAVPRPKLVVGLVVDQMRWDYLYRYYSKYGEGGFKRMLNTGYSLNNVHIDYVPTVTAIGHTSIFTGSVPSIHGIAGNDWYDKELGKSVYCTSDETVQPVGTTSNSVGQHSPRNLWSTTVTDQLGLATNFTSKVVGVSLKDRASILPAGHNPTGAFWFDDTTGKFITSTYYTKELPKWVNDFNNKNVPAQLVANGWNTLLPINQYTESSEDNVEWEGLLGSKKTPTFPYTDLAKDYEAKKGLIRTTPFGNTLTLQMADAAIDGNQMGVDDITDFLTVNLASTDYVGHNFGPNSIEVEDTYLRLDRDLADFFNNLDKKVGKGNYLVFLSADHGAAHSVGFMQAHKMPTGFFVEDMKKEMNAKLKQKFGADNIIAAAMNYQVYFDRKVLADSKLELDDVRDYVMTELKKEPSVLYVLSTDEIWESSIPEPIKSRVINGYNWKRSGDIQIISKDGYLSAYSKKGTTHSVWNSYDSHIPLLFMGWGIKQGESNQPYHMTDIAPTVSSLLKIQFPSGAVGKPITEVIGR
Substance | target or system | test | test system | conditions | how to read | endpoint | result
B1 (ARF11 500-622) | ARF22 498-598 (Arabidopsis thaliana, UniProt Q9C8N7) | two-hybrid |  |  | baseline: out of 2 tests, higher = firmer interaction | positive tests | 0
P1 K179V | vanadate, free oxyanion | microfluidic competitive inhibition | in vitro, cell-free expressed | not given, derived from inhibition constants, unchanged parent 676 nM | lower = stronger binding | oxyanion analog dissociation constant | 646 nM
HQQHDHHKDNNGQFM | UDP-N-acetylglucosamine--peptide N-acetylglucosaminyltransferase 110 kDa subunit (OGT, Homo sapiens, UniProt O15294) | binding, phage display NGS | peptide | concentration not given | baseline: input library | enrichment fold change | 2.72
